Results of several laboratories.
Numbers after ± are the reported error. In brackets after ≈: the same amount, converted by molar mass.
SEC14: SEC14 (Saccharomyces cerevisiae, UniProt P24280)
Scavenger receptor class B member 1: Scavenger receptor class B member 1 (Mus musculus, UniProt Q61009)
NUDT15: Nucleotide triphosphate diphosphatase NUDT15 (NUDT15, Homo sapiens, UniProt Q9NV35)

Sequences of proteins named here, by UniProt entry; tags and fusion partners are left off. Residues count along the entry.
UniProt P24280, whole entry: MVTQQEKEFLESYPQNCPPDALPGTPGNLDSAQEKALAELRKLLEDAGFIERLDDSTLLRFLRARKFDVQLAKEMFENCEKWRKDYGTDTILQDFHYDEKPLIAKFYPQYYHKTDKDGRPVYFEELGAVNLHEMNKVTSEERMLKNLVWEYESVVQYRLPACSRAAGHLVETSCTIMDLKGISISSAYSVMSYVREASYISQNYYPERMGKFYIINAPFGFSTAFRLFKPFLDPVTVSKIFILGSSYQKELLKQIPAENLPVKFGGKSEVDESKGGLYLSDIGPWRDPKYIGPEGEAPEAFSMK
UniProt Q61009, whole entry: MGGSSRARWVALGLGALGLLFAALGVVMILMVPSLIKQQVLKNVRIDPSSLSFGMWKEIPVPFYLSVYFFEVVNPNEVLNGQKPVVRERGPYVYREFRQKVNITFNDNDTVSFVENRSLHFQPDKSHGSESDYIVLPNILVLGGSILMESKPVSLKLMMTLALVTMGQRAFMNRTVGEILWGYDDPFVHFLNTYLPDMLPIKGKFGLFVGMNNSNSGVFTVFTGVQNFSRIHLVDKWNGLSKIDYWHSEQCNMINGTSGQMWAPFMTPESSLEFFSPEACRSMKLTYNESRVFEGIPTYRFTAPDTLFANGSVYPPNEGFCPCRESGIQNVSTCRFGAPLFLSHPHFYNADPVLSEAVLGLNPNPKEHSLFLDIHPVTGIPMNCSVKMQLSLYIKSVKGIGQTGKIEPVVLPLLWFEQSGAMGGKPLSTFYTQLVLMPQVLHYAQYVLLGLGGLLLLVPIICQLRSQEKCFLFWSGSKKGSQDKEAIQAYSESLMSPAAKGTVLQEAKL
UniProt Q9NV35, whole entry: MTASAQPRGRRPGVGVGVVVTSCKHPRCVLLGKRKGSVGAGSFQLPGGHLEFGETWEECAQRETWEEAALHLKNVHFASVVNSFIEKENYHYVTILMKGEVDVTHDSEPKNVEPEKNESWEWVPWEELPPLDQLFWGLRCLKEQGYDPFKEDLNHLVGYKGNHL
UniProt P46098, whole entry, looked up: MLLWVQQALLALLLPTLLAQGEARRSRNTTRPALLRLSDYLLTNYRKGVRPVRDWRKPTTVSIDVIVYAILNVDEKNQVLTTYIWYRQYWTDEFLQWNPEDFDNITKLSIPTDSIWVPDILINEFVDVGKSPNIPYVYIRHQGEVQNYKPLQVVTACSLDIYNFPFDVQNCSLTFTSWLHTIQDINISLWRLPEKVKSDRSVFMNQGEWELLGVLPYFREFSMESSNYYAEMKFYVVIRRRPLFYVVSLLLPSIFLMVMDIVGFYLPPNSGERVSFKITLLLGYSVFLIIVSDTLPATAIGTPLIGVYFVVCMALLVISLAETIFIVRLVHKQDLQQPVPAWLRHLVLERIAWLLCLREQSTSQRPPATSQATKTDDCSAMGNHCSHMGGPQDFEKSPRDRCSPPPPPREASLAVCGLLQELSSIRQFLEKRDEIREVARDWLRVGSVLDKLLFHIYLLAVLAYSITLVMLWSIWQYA
UniProt Q13976, whole entry: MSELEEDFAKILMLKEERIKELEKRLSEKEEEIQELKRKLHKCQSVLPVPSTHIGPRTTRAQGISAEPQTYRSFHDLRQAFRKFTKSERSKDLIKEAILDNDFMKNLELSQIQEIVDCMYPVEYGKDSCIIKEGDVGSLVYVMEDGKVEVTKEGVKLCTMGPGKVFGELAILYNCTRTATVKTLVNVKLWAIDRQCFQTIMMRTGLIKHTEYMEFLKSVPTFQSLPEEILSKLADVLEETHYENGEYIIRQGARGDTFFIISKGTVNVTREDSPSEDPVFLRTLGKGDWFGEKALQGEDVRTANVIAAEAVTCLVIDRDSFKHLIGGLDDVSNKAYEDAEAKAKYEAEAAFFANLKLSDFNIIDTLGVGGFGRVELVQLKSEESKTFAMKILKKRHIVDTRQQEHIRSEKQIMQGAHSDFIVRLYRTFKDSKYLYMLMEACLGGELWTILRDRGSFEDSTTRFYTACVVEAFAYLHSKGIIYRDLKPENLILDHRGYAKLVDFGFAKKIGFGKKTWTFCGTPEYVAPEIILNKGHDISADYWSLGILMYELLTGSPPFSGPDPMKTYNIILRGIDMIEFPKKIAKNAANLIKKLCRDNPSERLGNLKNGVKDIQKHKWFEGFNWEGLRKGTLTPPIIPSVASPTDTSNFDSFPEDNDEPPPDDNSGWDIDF
UniProt Q14790, 214-479 D374A/D384A/C409S/G418A/C433S limits assumed: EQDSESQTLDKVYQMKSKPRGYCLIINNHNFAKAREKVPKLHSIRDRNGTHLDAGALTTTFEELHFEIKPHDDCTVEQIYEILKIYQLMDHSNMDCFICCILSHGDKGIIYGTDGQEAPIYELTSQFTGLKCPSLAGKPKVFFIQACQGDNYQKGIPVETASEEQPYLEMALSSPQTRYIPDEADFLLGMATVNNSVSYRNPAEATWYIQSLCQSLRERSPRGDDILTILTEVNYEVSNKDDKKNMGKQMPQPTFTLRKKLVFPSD
UniProt P47871, 26-477 limits assumed: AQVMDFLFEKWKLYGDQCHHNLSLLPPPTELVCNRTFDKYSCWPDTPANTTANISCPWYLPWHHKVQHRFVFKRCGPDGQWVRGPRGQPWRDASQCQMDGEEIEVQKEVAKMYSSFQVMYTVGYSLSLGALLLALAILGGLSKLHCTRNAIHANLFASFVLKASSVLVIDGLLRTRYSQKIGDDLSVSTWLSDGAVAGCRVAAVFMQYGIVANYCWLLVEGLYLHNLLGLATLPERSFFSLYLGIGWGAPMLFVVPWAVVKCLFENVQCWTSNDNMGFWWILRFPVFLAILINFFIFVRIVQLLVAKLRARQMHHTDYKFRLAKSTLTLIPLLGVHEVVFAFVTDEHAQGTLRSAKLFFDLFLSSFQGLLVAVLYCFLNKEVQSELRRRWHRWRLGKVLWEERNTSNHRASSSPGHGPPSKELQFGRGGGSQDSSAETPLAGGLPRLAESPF
UniProt P26045, 646-901 limits assumed: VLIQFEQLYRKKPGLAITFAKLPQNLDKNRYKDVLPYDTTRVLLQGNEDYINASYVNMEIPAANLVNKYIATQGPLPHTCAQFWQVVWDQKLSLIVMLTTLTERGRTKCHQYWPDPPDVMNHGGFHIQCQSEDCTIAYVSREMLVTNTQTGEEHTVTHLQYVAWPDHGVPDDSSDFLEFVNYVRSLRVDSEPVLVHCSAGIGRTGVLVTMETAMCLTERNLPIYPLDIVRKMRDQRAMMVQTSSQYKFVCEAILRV
UniProt O94788, 27-518 limits assumed: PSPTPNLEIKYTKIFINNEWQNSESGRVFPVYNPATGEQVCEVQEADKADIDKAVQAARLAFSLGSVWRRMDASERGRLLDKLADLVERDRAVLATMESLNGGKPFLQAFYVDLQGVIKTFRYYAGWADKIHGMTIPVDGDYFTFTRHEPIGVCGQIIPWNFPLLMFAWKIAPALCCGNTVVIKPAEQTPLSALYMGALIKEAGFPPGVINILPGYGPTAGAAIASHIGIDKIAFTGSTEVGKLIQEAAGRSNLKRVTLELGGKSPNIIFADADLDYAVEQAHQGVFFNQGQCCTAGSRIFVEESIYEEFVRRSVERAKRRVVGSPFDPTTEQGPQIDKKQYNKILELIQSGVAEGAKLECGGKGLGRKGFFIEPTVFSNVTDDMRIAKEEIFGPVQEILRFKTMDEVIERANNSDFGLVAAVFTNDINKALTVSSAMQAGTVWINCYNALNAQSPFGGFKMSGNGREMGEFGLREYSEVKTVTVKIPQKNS
UniProt Q9NR97, 27-1041 limits assumed: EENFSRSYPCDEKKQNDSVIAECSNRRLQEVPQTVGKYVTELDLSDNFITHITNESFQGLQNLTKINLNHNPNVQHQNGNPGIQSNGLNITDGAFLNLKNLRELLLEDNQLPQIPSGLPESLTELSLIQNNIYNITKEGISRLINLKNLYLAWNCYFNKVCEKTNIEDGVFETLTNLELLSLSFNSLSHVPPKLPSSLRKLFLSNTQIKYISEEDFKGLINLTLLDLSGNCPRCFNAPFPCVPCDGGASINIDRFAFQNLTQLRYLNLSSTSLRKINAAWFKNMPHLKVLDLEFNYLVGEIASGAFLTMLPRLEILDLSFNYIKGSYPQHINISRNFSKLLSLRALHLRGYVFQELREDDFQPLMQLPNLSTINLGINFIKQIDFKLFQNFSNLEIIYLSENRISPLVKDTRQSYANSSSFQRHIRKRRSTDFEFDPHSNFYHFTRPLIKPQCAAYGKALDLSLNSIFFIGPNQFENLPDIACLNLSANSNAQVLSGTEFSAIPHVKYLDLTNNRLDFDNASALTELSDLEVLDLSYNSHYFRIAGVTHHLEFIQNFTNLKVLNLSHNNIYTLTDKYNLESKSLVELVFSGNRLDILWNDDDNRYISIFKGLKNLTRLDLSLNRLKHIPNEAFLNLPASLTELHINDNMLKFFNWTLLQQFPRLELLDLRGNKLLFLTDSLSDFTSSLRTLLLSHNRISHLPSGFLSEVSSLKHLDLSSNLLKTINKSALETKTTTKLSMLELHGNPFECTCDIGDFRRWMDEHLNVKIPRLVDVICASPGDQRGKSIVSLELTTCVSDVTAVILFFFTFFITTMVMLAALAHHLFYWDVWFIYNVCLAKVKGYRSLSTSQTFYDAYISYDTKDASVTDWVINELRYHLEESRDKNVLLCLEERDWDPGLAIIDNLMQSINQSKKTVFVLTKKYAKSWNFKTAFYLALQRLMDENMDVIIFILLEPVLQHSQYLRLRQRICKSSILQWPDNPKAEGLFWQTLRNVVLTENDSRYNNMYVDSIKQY
UniProt P00519, 65-534 limits assumed: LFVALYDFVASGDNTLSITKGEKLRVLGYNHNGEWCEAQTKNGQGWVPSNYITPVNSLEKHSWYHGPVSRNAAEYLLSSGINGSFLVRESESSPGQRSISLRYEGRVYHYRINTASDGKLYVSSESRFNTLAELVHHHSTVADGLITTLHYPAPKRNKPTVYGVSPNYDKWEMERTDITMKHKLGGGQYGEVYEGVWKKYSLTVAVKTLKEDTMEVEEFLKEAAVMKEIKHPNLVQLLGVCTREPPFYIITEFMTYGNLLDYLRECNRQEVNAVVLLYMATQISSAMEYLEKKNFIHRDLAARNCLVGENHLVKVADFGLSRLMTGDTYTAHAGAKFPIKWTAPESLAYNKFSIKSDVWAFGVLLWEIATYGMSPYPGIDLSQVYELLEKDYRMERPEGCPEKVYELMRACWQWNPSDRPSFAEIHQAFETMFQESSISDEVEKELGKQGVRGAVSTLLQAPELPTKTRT
UniProt Q9H9B1, 1126-1243 limits assumed: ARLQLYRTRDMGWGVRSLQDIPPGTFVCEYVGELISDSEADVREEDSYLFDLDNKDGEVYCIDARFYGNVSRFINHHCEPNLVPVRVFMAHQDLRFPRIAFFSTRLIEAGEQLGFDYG

With `O=C(c1ccc(Cl)c([N+](=O)[O-])c1)N1CCN(Cc2ccccc2)CC1` the IC50 was greater than 20000 nM (SEC14; phosphatidylinositol transfer, inhibitor; Sec14 287 nM, together with: [3H]-phosphatidylinositol).
The IC50 of `COCC(=O)N1CC(C)(C)c2cc(-c3csc(NC(=O)c4cccc(OC)c4)n3)ccc21` is reported as 200 nM (Scavenger receptor class B member 1; DiI-HDL uptake, inhibitor; mouse cells; together with: DiI-HDL).
`O=C1c2cccc3[nH]nc(c23)CCN1[C@H]1CN2CCC1CC2` gave a Ki of 109 ± 17.2 nM (HTR3A (Homo sapiens, UniProt P46098); binding, [3H]granisetron SPA displacement; pH 10, together with: [3H]granisetron 10 nM).
`Cc1cc2c(-c3cncc(N)c3)cnc(N[C@@H]3CCNC[C@H]3OCC3CCS(=O)(=O)CC3)c2[nH]c1=O` gave a permeability of less than 0.3 ×10⁻⁶ cm/s (PAMPA; artificial membrane; pH 7.4).
With `CCC(=O)N1CC(C)(C)c2cc(-c3csc(NC(=O)c4cc(OC)cc(OC)c4)n3)ccc21` the IC50 was 12 nM (Scavenger receptor class B member 1; DiI-HDL uptake, inhibitor; mouse cells; together with: DiI-HDL).
With `CCN(CC)Cc1onc(-c2cccc(Cl)c2)c1-c1ccnc(N[C@@H]2CCN(C(=O)c3ccn(C)n3)C2)n1` the inhibition was 19 ± 9% (PRKG1 (Homo sapiens, UniProt Q13976); kinase activity, inhibitor, IMAP; 10 µM, together with: FAM-IP3R peptide).
`O=C(c1ccc(N2CCOCC2)cc1)N1CCC[C@@H](N(C(=O)CCl)c2ccccc2)C1` has an IC50 of 7140 nM (Caspase-8 (CASP8, Homo sapiens, UniProt Q14790, C409S/C433S/D374A/D384A/G418A); probe labeling, competitive gel-based ABPP; HEK293T cell lysate; 1 h, together with: alkyne probe 10 µM).
With `O=C(c1ccc(Cl)c([N+](=O)[O-])c1)N1CCN(c2ccccc2)CC1` the IC50 was 877 ± 95 nM (SEC14; phosphatidylinositol transfer, inhibitor; Sec14 287 nM, together with: [3H]-phosphatidylinositol).
With `CCc1nc(C2CC2)nc(N2CCN(C(=O)c3ccco3)CC2)c1Cc1cc(C)ccc1C` the IC50 was 22600 nM (Glucagon receptor (GCGR, Homo sapiens, UniProt P47871); cAMP accumulation, antagonist; CHO cells; together with: glucagon).
With `CC(=O)N[C@@H](Cc1c[nH]cn1)C(=O)N[C@@H](CC(=O)O)C(=O)NCC(=O)N[C@@H](CC(C)C)C(=O)N[C@@H](Cc1cc(=O)oc2cc(OP(=O)(O)O)ccc12)C(=O)N[C@@H](CCC(N)=O)C(=O)NCC(=O)N[C@@H](CC(C)C)C(=O)N[C@@H](CO)C(=O)N[C@H](C(=O)N[C@@H](C)C(=O)N[C@H](C(=O)N[C@@H](CCCCN)C(=O)N[C@@H](CC(=O)O)C(=O)N[C@H](C(=O)N[C@@H](Cc1ccc(O)cc1)C(=O)N[C@@H](CC(=O)O)C(=O)N[C@@H](C)C(=O)N[C@@H](CC(C)C)C(=O)N[C@@H](Cc1c[nH]cn1)C(N)=O)[C@@H](C)O)[C@@H](C)O)[C@@H](C)O` the Km was 13.7 µM (PTPN3 (Homo sapiens, UniProt P26045); peptide hydrolysis, substrate; pH 6.0, 37 °C, TCR zeta-chain ITAM peptide).
`CCOc1ccsc1C(=O)N1CCN(c2ccc([N+](=O)[O-])c(N3CCCC3)c2)CC1` gave an IC50 of 910 ± 330 nM (ALDH1A2 (Homo sapiens, UniProt O94788); enzyme activity, inhibitor, NADH formation; together with: retinal 40 µM, NAD 100 µM).
For `O=C(c1ccc(C(F)(F)F)cc1)N1CCN(c2ccc([N+](=O)[O-])c3ncccc23)CC1`, the IC50 was 580 ± 110 nM (TLR8 (Homo sapiens, UniProt Q9NR97); reporter gene, inhibitor, SEAP reporter; HEK-Blue TLR8).
`Nc1ccc(C(=O)N2CCN(S(=O)(=O)c3ccc4[nH]c(=O)oc4c3)CC2)cc1` gave an IC50 of 361 nM (NUDT15; enzyme activity, inhibitor, malachite green; together with: dGTP).
With `CO[C@@H]1CNC[C@H](OCC2CCC(F)(F)CC2)[C@H]1Nc1ncc(-c2cncc(C)c2)c2cc(C)c(=O)[nH]c12` the solubility was 326 µM (≈ 172 µg/mL) (CLND).
With `Cc1ccc(NC(=O)c2cccc(C(F)(F)F)c2)cc1Nc1ncccc1-c1cc(Nc2ccc(OCCNC(=O)CCCC(=O)NCc3ccc(COc4nc(N)nc5[nH]cnc45)cc3)cc2)ncn1` the IC50 was 400 ± 30 nM (Tyrosine-protein kinase ABL1, SH3-SH2-kinase domains (ABL1, Homo sapiens, UniProt P00519); enzyme activity, inhibitor; enzyme 6 nM).
With `N#Cc1ccc(C(=O)N2CCN(S(=O)(=O)c3ccc4[nH]c(=O)oc4c3)CC2)cc1` the IC50 was 512 nM (NUDT15; enzyme activity, inhibitor, malachite green; together with: dGTP).
The IC50 of `COc1cc2c(NC3CCN(Cc4ccccc4)CC3)nc(NCCCN(C)C)nc2cc1OCCCCCN` is reported as 50 nM (Histone-lysine N-methyltransferase EHMT1, SET domain (EHMT1, Homo sapiens, UniProt Q9H9B1); methyltransferase activity, inhibitor; 5 min, 30 °C, together with: H3 peptide 5 µM, SAM 100 µM).
For `CS(=O)(=O)c1ccc(C(=O)N2CCN(S(=O)(=O)c3ccc4[nH]c(=O)oc4c3)CC2)cc1`, the IC50 was 1690 nM (NUDT15; enzyme activity, inhibitor, malachite green; together with: dGTP).
For `CN(C)S(=O)(=O)c1ccc(NCCCCN2CCC(Nc3nc4ccccc4n3Cc3ccc(F)cc3)CC2)c2nonc12`, the colocalization coefficient was 0.75 (HEK293 hERG-transfected; lysosome colocalization; 2.5 µM).
With `O=C(c1ccccc1)N1CCN(S(=O)(=O)c2ccc3[nH]c(=O)oc3c2)CC1` the IC50 was 192 nM (NUDT15; enzyme activity, inhibitor, malachite green; together with: dGTP).
For `CC1(CNC(=O)c2ccc(C#Cc3ccccc3)cc2)NC(=O)NC1=O` (stereo not drawn), the pKa was 8.39.
